Results from different studies.
Numbers after ± are the reported error.

SMILES | assay | system | conditions | tissue uptake
CCCC[C@H](NC(=O)CN1CCC(NC(=O)CN2CCN(CC(=O)O)CCN(CC(=O)O)CCN(CC(=O)O)CC2)CC1)C(=O)N[C@H]1CC(=O)NCCCC[C@@H](C(N)=O)NC(=O)[C@H](Cc2c[nH]c3ccccc23)NC(=O)[C@H](CCCNC(=N)N)NC(=O)[C@@H](Cc2ccccc2)NC(=O)[C@H](Cc2c[nH]cn2)NC1=O [gallium-68 labelled] | – | C57BL/6J mice male B16-F10 tumour, testes | 2 h post injection, unblocked | 0.4 ± 0.1 %ID/g
O=C([O-])c1cccc(CN(CCN(Cc2cn(Cc3ccccc3)nn2)Cc2cccc(C(=O)[O-])n2)Cc2cn(Cc3ccccc3)nn2)n1.[64Cu+2] | – | healthy athymic nude mice, large intestine | intravenous, 1 h | 2.11 %ID/g
CCCC[C@H](NC(=O)CNC(=O)CNC(=O)CN1CCN(CC(=O)O)CCN(CC(=O)O)CCN(CC(=O)O)CC1)C(=O)N[C@H]1CC(=O)NCCCC[C@@H](C(N)=O)NC(=O)[C@H](Cc2c[nH]c3ccccc23)NC(=O)[C@H](CCCNC(=N)N)NC(=O)[C@@H](Cc2ccccc2)NC(=O)[C@H](Cc2c[nH]cn2)NC1=O [gallium-67 labelled] | – | female C57 mice, B16/F1 melanoma, tumor | intravenous, 0.037 MBq, 0.5 h | 27 ± 3.82 %ID/g
NC12CNCCNCC(NCc3ccc(CNC(=O)CCCC(=O)NCc4ccc(-c5nncnn5)cc4)cc3)(CNCCNC1)CNCCNC2.[64Cu+2] | – | athymic nude mice, SW1222 xenograft, large intestine with contents | 4 h, pretargeting with huA33-TCO, 24 h interval | 0.48 ± 0.09 %ID/g
O=C([O-])CN1CCN(CC(=O)[O-])CCN(CC(=O)NCCc2ccc3c(c2)C2C=CCC2C(c2cc4c(cc2Br)OCO4)N3)CCN(CC(=O)[O-])CC1.[111In+3] (stereo not drawn) | – | mice with Hec50 tumour xenograft, pituitary | 2 h | 0.04 ± 0.03 %ID/g
CCCC[C@@H]1NC(=O)[C@@H](NC(=O)[C@H](CCC(=O)O)NC(=O)CNC(=O)CN2CCN(CC(=O)O)CCN(CC(=O)O)CCN(CC(=O)O)CC2)CCCCNC(=O)C[C@@H](C(N)=O)NC(=O)[C@H](C(C)C)NC(=O)[C@@H]2CCCN2C(=O)[C@H](CCCNC(=N)N)NC(=O)CNC(=O)[C@H](Cc2c[nH]c3ccccc23)NC(=O)[C@H](CCCNC(=N)N)NC(=O)[C@@H](Cc2ccccc2)NC(=O)[C@H](Cc2c[nH]cn2)NC(=O)[C@H](CCC(=O)O)NC1=O [gallium-67 labelled] | – | C57 mice with B16/F1 melanoma, liver | intravenous, 4 h | 0.25 ± 0.07 %ID/g
N=C(N)NCCC[C@@H]1NC(=O)[C@H](CCCCNC(=O)CON=C[C@H](F)[C@@H](O)[C@H](O)[C@H](O)CO)NC(=O)[C@@H](Cc2ccc(O)cc2)NC(=O)[C@H](CC(=O)O)NC(=O)CNC1=O [fluorine-18 labelled] | – | nude mice U-87 MG tumour, brain | intravenous, 2 h | 0.13 ± 0.07 %ID/g
CN1C(=O)[C@@H](Cc2ccc(O)c(I)c2)NC(=O)CNC(=O)[C@H](Cc2ccc3ccccc3c2)NC(=O)[C@H](CCCNC(=N)N)NC(=O)[C@H]1CCCNC(=O)c1ccc(CNC(=O)CN2CCN(CC(=O)O)CCN(CC(=O)O)CCN(CC(=O)O)CC2)cc1 [lutetium-177 labelled] | item: 177Lu radioactivity | female CB-17 SCID mice, Daudi xenograft, blood | intravenous, 0.16 nmol per mouse, 6 h | 0.09 ± 0.01 %ID/g
CCCC[C@H](NC(=O)CNC(=O)CNC(=O)CN1CCN(CC(=O)O)CCN(CC(=O)O)CC1)C(=O)N[C@H]1CC(=O)NCCCC[C@@H](C(N)=O)NC(=O)[C@H](Cc2c[nH]c3ccccc23)NC(=O)[C@H](CCCNC(=N)N)NC(=O)[C@@H](Cc2ccccc2)NC(=O)[C@H](Cc2c[nH]cn2)NC1=O [gallium-67 labelled] | – | female C57 mice, B16/F1 melanoma, heart | intravenous, 0.037 MBq, 2 h | 0.45 ± 0.09 %ID/g
